Experimental data collected from several papers.
Every numbered part comes from another study and shows a few of its results, in no order. Substitutions count along the parent as printed.
Chain of UniProt Q8IW41 (whole entry, looked up): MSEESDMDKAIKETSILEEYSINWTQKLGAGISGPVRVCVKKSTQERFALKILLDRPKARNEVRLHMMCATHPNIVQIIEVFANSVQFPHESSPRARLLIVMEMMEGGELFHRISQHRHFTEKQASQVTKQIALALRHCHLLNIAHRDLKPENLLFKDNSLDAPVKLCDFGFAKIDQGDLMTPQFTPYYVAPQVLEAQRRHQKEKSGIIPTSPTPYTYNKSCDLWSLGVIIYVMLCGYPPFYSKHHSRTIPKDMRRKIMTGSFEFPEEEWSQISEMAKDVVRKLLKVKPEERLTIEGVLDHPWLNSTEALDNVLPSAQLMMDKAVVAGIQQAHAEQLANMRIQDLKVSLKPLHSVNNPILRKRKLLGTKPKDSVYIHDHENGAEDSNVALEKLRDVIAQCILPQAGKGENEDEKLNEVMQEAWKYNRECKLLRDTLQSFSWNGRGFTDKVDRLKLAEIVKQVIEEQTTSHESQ
Chain of UniProt P11229 (whole entry, looked up): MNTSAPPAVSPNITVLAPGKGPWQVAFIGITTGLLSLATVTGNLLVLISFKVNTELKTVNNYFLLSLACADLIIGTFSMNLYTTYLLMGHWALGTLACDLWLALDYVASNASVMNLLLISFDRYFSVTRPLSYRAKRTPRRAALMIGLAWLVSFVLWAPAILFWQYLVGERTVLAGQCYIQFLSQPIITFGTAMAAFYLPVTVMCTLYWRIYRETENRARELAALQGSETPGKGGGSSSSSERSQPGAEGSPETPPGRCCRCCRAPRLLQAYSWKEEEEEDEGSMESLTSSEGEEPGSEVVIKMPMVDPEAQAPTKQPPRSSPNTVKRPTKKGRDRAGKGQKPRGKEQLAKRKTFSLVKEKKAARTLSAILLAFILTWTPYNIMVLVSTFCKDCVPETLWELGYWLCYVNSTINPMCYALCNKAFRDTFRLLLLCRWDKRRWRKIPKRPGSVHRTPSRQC

Block 1
Target: vanadate, free oxyanion
Technique: microfluidic competitive inhibition
Medium: in vitro, cell-free expressed
Concentration: not given
Setting: derived from inhibition constants, unchanged parent 676 nM
Reading: lower = stronger binding
Parent: PafA, mature enzyme, eGFP fusion (Elizabethkingia meningoseptica, UniProt Q9KJX5); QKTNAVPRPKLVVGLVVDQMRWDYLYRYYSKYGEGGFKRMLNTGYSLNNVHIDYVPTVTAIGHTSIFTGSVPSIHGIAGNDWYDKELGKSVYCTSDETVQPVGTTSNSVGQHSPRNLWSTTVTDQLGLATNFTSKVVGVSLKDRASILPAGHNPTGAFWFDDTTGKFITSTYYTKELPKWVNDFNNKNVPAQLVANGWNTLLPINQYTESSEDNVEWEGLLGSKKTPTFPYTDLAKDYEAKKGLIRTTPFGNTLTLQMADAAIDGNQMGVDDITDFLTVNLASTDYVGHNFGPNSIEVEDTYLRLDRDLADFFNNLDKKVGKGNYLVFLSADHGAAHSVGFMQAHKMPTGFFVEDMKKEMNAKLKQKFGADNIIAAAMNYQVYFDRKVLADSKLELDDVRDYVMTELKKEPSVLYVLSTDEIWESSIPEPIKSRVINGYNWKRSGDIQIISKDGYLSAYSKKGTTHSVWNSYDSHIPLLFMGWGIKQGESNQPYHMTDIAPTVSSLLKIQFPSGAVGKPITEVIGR
Under “oxyanion analog dissociation constant”, `N107G` is recorded as 840 nM.
For `K518G`, “oxyanion analog dissociation constant” read 524 nM.
Under “oxyanion analog dissociation constant”, `K166G` is recorded as 1.08 µM.
`V139A`: “oxyanion analog dissociation constant” 577 nM.
For `T104V`, “oxyanion analog dissociation constant” read 510 nM.
`T121V`: “oxyanion analog dissociation constant” 827 nM.
`E86V`: “oxyanion analog dissociation constant” 521 nM.
`S95V`: “oxyanion analog dissociation constant” 2.54 µM.

Block 2
Target: UDP-N-acetylglucosamine--peptide N-acetylglucosaminyltransferase 110 kDa subunit (OGT, Homo sapiens, UniProt O15294)
Chain of UniProt O15294 (whole entry, looked up): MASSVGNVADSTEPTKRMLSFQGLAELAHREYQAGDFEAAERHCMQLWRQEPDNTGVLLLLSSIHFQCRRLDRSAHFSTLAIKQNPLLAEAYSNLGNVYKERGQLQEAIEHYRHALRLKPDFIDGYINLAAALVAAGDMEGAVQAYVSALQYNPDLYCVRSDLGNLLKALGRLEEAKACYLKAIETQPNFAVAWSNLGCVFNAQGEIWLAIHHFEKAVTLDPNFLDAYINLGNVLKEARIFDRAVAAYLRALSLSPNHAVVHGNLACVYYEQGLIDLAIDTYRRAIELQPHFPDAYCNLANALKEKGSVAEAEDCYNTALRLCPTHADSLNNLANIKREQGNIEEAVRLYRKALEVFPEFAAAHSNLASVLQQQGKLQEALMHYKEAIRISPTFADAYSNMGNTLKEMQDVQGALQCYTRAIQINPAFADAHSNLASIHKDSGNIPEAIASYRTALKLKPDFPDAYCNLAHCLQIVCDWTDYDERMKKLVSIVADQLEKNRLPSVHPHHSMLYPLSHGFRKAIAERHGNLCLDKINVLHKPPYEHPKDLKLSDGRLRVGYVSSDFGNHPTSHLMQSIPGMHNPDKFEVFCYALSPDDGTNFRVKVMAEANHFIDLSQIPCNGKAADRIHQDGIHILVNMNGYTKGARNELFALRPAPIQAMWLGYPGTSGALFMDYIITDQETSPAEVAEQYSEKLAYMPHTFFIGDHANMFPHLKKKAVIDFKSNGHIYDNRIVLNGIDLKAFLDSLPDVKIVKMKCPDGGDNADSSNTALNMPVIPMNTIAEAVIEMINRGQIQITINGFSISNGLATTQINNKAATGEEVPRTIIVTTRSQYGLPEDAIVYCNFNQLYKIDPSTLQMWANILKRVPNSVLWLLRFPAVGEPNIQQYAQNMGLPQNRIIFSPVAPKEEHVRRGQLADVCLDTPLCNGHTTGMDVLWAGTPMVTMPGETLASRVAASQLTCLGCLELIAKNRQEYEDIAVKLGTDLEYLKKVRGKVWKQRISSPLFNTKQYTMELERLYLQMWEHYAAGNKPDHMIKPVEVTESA
Effect on: phage display binding
Technique: phage display panning NGS
Form: peptide
Setting: panning round 3
Relative to: OGT-panned over input library
`QDFKPMYQIKIRSHA` gave a fold enrichment of 7.77.
With `VYSPVYQIIVNQNH` the fold enrichment was 2.69.
`QYVPYYQIEVNSQPY` has a fold enrichment of 1.74.
For `GHDSYMPFYQISLFR`, the fold enrichment was 2.6.
With `EQHFPPAYLITYKSR` the fold enrichment was 3.86.
`VERWFPPKYQMPIQG` has a fold enrichment of 2.68.
The fold enrichment of `DSMLFTPLYQITVPH` is reported as 5.21.
The fold enrichment of `QPYFLPKYVITVDNS` is reported as 2.97.

Single results of other studies
CDPK1: Calcium-dependent protein kinase 1 (CDPK1, Plasmodium falciparum, UniProt P62344)
The remaining binding of COc1cccc(CNC(=O)c2nc3scc(COCc4ccc(C(=O)O)cc4)c3c(=O)[nH]2)c1 is reported as 72.7% (CDPK1; cell-free assay, competition with immobilised ligand; 1 µM).
CCn1cnc2c(Nc3cccc(Cl)c3)nc(N[C@H]3CCCC[C@H]3N)nc21 has a remaining activity of 98.3% (MAPKAPK5 (Homo sapiens, UniProt Q8IW41); enzyme activity, inhibitor; 0.5 µM; relative to: control).
The remaining binding of Cc1c(C(=O)O)cc(-c2ccc(C3CCNCC3)cc2)c2ccc(-c3ccc(C(F)(F)F)cc3)cc12 is reported as 100% (pknB (Mycobacterium tuberculosis, UniProt P9WI81); cell-free assay, competition with immobilised ligand; 1 µM).
With O=C1CC[C@@]2(O)[C@H]3Cc4ccc(O)c5c4[C@@]2(CCN3CC2CC2)[C@H]1O5 the viability was 99.4% (Huh-7; 10 µM, 24 h).
Cc1nc(C2CCN(C(=O)c3ccc(OC(F)(F)F)cc3N)CC2)c2ncc(N3CCN(C)CC3)cc2n1 gave a remaining binding of 100% (CDPK1; cell-free assay, competition with immobilised ligand; 1 µM).
For O=C1NC(=O)N(c2ccc(Br)cc2)C(=O)C1=Cc1ccc(-c2ccccc2C(=O)O)o1, the inhibition was -0.45% (AlphaScreen signal, AlphaScreen counter screen; His6 peptide without bromodomain; 50 µM, assay interference check).
For CCCCN(CCCC)C(=O)CN1C[C@@H](c2cc(OC)c3c(c2)OCO3)[C@H](C(=O)O)[C@H]1CC(C)(C)CCC, the inhibition was 12.4% (CHRM1 (Homo sapiens, UniProt P11229); binding, radioligand binding; 10 µM).

Some of these lines once more (single results of other studies):
CCn1cnc2c(Nc3cccc(Cl)c3)nc(N[C@H]3CCCC[C@H]3N)nc21 has a remaining activity of 98.3% (MAPKAPK5 (Homo sapiens, UniProt Q8IW41); enzyme activity, inhibitor; 0.5 µM; relative to: control).
The remaining binding of Cc1c(C(=O)O)cc(-c2ccc(C3CCNCC3)cc2)c2ccc(-c3ccc(C(F)(F)F)cc3)cc12 is reported as 100% (pknB (Mycobacterium tuberculosis, UniProt P9WI81); cell-free assay, competition with immobilised ligand; 1 µM).
With O=C1CC[C@@]2(O)[C@H]3Cc4ccc(O)c5c4[C@@]2(CCN3CC2CC2)[C@H]1O5 the viability was 99.4% (Huh-7; 10 µM, 24 h).
